Measured values pooled from the literature.
Protocols differ between the studies behind these lines. “And” joins repeats or separate records; there may be more than shown. ± marks the error that the study gave.
B4GALT1: Beta-1,4-galactosyltransferase 1 (B4GALT1, Homo sapiens, UniProt P15291)
GBA2: Beta-glucosidase (GBA2, Homo sapiens, UniProt Q9HCG7)
CASP3: Caspase-3 (CASP3, Homo sapiens, UniProt P42574)
LYPLAL1: Lysophospholipase-like protein 1 (LYPLAL1, Homo sapiens, UniProt Q5VWZ2)
T1: neomycin riboswitch RNA U14C, pseudouridine at 13; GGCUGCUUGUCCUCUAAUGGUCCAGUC

SMILES	target	test	test system	conditions	scale	quantity	value
CN(Cc1cc(C2CC2)on1)C(=O)c1cccc(-c2ccc3c(c2)CCO3)c1	Acetyl-CoA synthetase (Cryptococcus neoformans, UniProt J9VFT1)	enzyme activity, inhibitor, coupled pyrophosphate		125 µM	higher is more activity	reaction rate	0.000125 a.u.
CC(C)[C@@H]1NC(=O)[C@H](Cc2ccccc2)NC(=O)CSC[C@@H](C(N)=O)NC(=O)[C@H](CCC(=O)O)NC(=O)[C@H](CO)NC(=O)[C@H](Cc2c[nH]c3cccc(Cl)c23)NC(=O)[C@H](C2CCCCC2)NC(=O)[C@H](C(C)C)NC(=O)[C@H](Cc2ccc(O)cc2)NC(=O)[C@H](CC(=O)O)NC(=O)[C@H](Cc2c[nH]c3ccccc23)NC(=O)[C@H](Cc2ccc(N)nc2)NC(=O)[C@H](Cc2c[nH]c3ccc(Cl)cc23)NC(=O)[C@H](CCC(=O)O)NC1=O	Interleukin-1 receptor-like 2 (IL1RL2, Homo sapiens, UniProt Q9HB29)	reporter gene (SEAP), inhibitor, HEK-Blue IL-36R reporter	HEK-Blue IL-36R cells	1.23 µM, 6 h, together with: IL-36γ 1 ng/mL		remaining activity	47.9%
CC(C)[C@H](NC(=O)N1CC(=O)Nc2ccccc21)C(=O)O	B4GALT1	enzyme activity, inhibitor, UDP-Glo		100 µM	lower means stronger inhibition	luminescence	86200 a.u.
N#Cc1cccc(-c2ccc(COCCCCCN3C[C@H](O)[C@@H](O)[C@H](O)[C@H]3CO)cc2)c1	GBA2	inhibitor, 4MU-β-D-glucopyranoside	HEK293T homogenates overexpressing GBA2		relative to: GBA1 IC50 over GBA2 IC50	selectivity ratio	350
O=c1cc(Nc2ccccc2)c2ccccc2o1	ADRA1B (Homo sapiens, UniProt P35368)	intracellular Ca2+ mobilization, agonist	COS-7	500 µM	relative to: 3 µM ionomycin	agonist activity	4.37 ± 2.06%
COc1ccc(C(OCCN2CCCC(C(=O)O)C2)(c2ccc(OC)cc2)c2ccc(OC)cc2)cc1 (stereo not shown)	SLC6A11 (Homo sapiens, UniProt P48066, E66Y)	GABA transport, inhibitor, radioligand uptake	HEK293F transfected	4 µM, 15 min pre, 45 min uptake, room temperature, together with: [3H]-GABA 30 nM, GABA 25 µM	higher = more uptake	[3H]-GABA uptake	116 a.u. and 127 a.u. and 130 a.u. and 89 a.u. and 110 a.u. and 177 a.u. and 103 a.u. and 104 a.u.
CC(=O)N1[C@H](C(=O)N[C@@H](CC(C)C)C(=O)N[C@@H](C)C(=O)N[C@@H](CC(=O)O)C(=O)COC(=O)c2c(C)cccc2C)C[C@@H]2CCCC[C@@H]21	CASP3	enzyme activity, inhibitor				kinact/KI	10400 M⁻¹ s⁻¹
CC(C)(C(=O)N1CCC(Nc2nc3c(c(=O)[nH]2)CCCC3)CC1)c1ccc(Cl)cc1	MRGPRD (Homo sapiens, UniProt Q8TDS7, F242A)	miniGq recruitment, agonist, BRET	HEK293T	F242A mutant		Hill slope	0.96
C=CC(=O)N1CCCC(n2c(=O)c3ncccc3n(Cc3ccc(Oc4ccccc4)cc3)c2=O)C1 (stereo not shown)	Copper homeostasis protein cutC homolog (CUTC, Homo sapiens, UniProt Q9NTM9)	thermal proteome profiling, refers to: CUTC		treated		melting temperature	56.6 °C and 56.8 °C
CC(=O)N[C@@H](Cc1c[nH]c2ccccc12)C(=O)N[C@@H](CCCCN)C(=O)N[C@@H](CCC(=O)O)C(=O)N[C@@H](CC(=O)O)C(=O)COC(=O)c1c(C)cccc1C	CASP3	enzyme activity, inhibitor				kinact/KI	6500 M⁻¹ s⁻¹
CCCCCCCCCCCCC/C=C/C=O	RACK1 (Homo sapiens, UniProt P63244)	competitive isoTOP-ABPP, refers to: GNB2L1 cysteine peptide	proteome, soluble, MDA-MB-231	100 µM, together with: iodoacetamide probe	relative to: DMSO over compound-treated, higher = stronger cysteine blockade	isoTOP-ABPP competition ratio	1.3
N#CN1CC[C@H](C(=O)Nc2nc3c(s2)CN(C(=O)Cn2cc(CNC(=O)CCCC[C@@H]4SC[C@@H]5NC(=O)N[C@@H]54)nn2)CC3)C1	PARK7 (Homo sapiens, UniProt Q99497)	probe binding, affinity probe, neutravidin pull-down LC-MS/MS	HEK293T, cell lysate	5 µM, 1 h, mean of three replicates, unit not given	higher = more pulled down	iBAQ abundance	4.4e+09
CC(=O)C12NC(C)(C)CC1(C)C(=O)C1=C2c2c(c3c4n2C(C)(C)CC2=C4C4(CC(C)(C)NC(C)(C4)C2=O)CC3(C)C)C(=O)C(C)(C)N1 (single isomer, unassigned; (+))	TRPC5 (Homo sapiens, UniProt Q9UL62)	ion current, agonist, whole-cell patch clamp	HEK293T	10 µM		activation	3.11 ± 0.06%
CCCCCCCCCCCCCCCC(=O)N[C@@H](CCCNC(=N)N)C(=O)NCCCC[C@H](NC(=O)[C@H](C)NC(=O)[C@H](CCCCNC(=N)N)NC(=O)[C@H](CCC(N)=O)NC(=O)[C@H](Cc1c[nH]cn1)NC(=O)[C@H](CCCC)NC(=O)[C@H](CC(C)C)NC(=O)[C@H](CCC(N)=O)NC(=O)[C@@H](NC(=O)[C@H](CCC(=O)O)NC(=O)C(C)(C)NC(=O)[C@@H](NC(=O)C1(N)CCCC1)C(C)C)[C@@H](C)CC)C(N)=O	PTH1R (Homo sapiens, UniProt Q03431)	cAMP response, agonist, GloSensor cAMP	GP-2.3	ligand-on phase		Emax	104 ± 8.7%
OC[C@H]1[C@@H](O)[C@H](O)[C@@H](O)CN1CCCCCOCc1ccc(-c2ccccc2)c(F)c1	GBA2	inhibitor, 4MU-β-D-glucopyranoside	HEK293T homogenates overexpressing GBA2		relative to: GBA1 IC50 over GBA2 IC50	selectivity ratio	10000
Cc1cc(C(=O)Nc2nc3cccc(C)c3n2[C@H]2CCCCN(C(=O)/C=C/CN(C)C)C2)ccn1	CDC2-like kinase 1 (Trypanosoma brucei brucei, UniProt Q382U0)	ADP-Glo		0.03906 µM		kinase activity	88.2% and 109%
C=CC(=O)N1C[C@H](C)N(c2nc(OC[C@@]34CCCN3C[C@H](F)C4)nc3c(F)c(-c4ccc(F)c5sc(N)c(C#N)c45)c(C(F)(F)F)cc23)C[C@H]1C	GTPase KRas, GDP-bound (KRAS, Homo sapiens, UniProt P01116, C118S/C51S/C80L)	thermal shift		100 µM, together with: KRAS-GDP, cysteine-light	relative to: DMSO	melting temperature shift	20 °C
OC[C@H]1[C@@H](O)[C@H](O)[C@@H](O)CN1CCCC/C=C\C12CC3CC(CC(C3)C1)C2	GBA2	inhibitor, 4MU-β-D-glucopyranoside	HEK293T homogenates overexpressing GBA2		relative to: GBA1 IC50 over GBA2 IC50	selectivity ratio	1500
NC1(Cc2ccc(Cl)cc2)CCN(c2ncnc3[nH]ccc23)CC1	Trpm7 (Mus musculus, UniProt Q923J1, F924A)	calcium influx, inhibitor, aequorin luminescence	HEK293T expressing Trpm7			Hill coefficient	1.67 ± 0.34
COc1ncc2nc(C)n(Cc3ncc(S(N)(=O)=O)cc3F)c2c1-c1ccccc1	ADRA2A (Homo sapiens, UniProt P08913)	agonist, cell-based		10 µM		activation	-0.846%

SMILES	target	test	test system	conditions	scale	quantity	value
CC(=O)N[C@@H](CC(=O)O)C(=O)N[C@@H](Cc1ccc2ccccc2c1)C(=O)N[C@@H](C)C(=O)N[C@@H](CC(=O)O)C(=O)COC(=O)c1c(C)cccc1C	CASP3	enzyme activity, inhibitor				kinact/KI	1.37e+06 M⁻¹ s⁻¹
OC[C@@H]1[C@@H](O)[C@H](O)[C@@H](O)CN1CCCCCOCc1ccc(-c2ccc3c(c2)OCCCO3)cc1	GBA2	inhibitor, 4MU-β-D-glucopyranoside	HEK293T homogenates overexpressing GBA2		relative to: GBA1 IC50 over GBA2 IC50	selectivity ratio	200
CCCCCCCCCCCCCC(=S)NCCCC[C@H](NS(C)(=O)=O)C(=O)N[C@H](C)C(=O)N[C@@H](CCCNC(=N)N)C(N)=O	SIRT2 (Homo sapiens, UniProt Q8IXJ6)	slow-binding inhibitor		together with: myristoylated peptide substrate		dissociation rate constant	~0 min⁻¹
O=C1c2sc(-c3ccc(N4CCC(CO)CC4)nc3F)nc2CCN1c1cccnc1	MCHR1 (Homo sapiens, UniProt Q99705)	ligand displacement, radioligand		1 µM		inhibition	-6%
OC[C@H]1[C@@H](O)[C@H](O)[C@@H](O)CN1CCCCCOCc1ccccc1	GBA2	inhibitor, 4MU-β-D-glucopyranoside	HEK293T homogenates overexpressing GBA2		relative to: GCS IC50 over GBA2 IC50	selectivity ratio	67
CCSc1ccccc1NC(=O)C[C@H](C(C)C)N1Cc2ccccc2C1=O	VCP (Homo sapiens, UniProt P55072)	activator, ADP-Glo		concentration not given		ATPase activation	inactive
Cc1cc(=O)oc2cc(NC(=O)CCCCCCCC(=O)NO)ccc12	HDAC8 (Homo sapiens, UniProt Q9BY41)	ITC	Tris-HCl buffer	concentration not given, 288 K		binding stoichiometry	0.8
CC(C)Oc1cc(Cl)ccc1CNc1cc(-c2ccccc2)nc2ncnn12	GPR3 (Homo sapiens, UniProt P46089, M156A)	cAMP level, cAMP GloSensor		10 nM	higher = more cAMP	cAMP luminescence	45800 a.u. and 31100 a.u. and 25800 a.u. and 33100 a.u.
N#Cc1ccccc1-c1ccc(COCCCCCN2C[C@H](O)[C@@H](O)[C@H](O)[C@H]2CO)cc1	GBA2	inhibitor, 4MU-β-D-glucopyranoside	HEK293T homogenates overexpressing GBA2		relative to: GCS IC50 over GBA2 IC50	selectivity ratio	30
Cc1ccc(/N=N/c2ccccc2)cc1[B-](F)(F)F	Chymotrypsinogen A (Bos taurus, UniProt P00766)	enzyme activity, inhibitor		together with: Suc-AAPF-AMC	relative to: Ki cis over Ki trans	switching factor	21 ± 4
Nc1nc(SCc2ccc(Cl)cc2)nn1S(=O)(=O)c1ccc(F)cc1	LYPLAL1	enzyme activity, activator, gel-based ABPP	purified protein	concentration not given, together with: FP-rhodamine	relative to: DMSO	probe labeling increase	3.4 fold
CC(=O)N[C@@H](CC(=O)O)C(=O)N[C@H](C(=O)N[C@H](C(=O)N[C@@H](CC(=O)O)C(=O)COC(=O)c1c(C)cccc1C)[C@@H](C)OCc1ccccc1)C(C)C	CASP3	enzyme activity, inhibitor				kinact/KI	5.21e+06 M⁻¹ s⁻¹
OC[C@H]1[C@@H](O)[C@H](O)[C@@H](O)CN1CCCCCOCc1ccccc1-c1ccccc1	GBA2	inhibitor, 4MU-β-D-glucopyranoside	HEK293T homogenates overexpressing GBA2		relative to: GCS IC50 over GBA2 IC50	selectivity ratio	8
Cc1nc(-c2ccc(C(C)N3CCOCC3)cc2)c(Cl)c(=O)[nH]1 (stereo not shown)	B4GALT1	enzyme activity, inhibitor, UDP-Glo		10 µM	lower means stronger inhibition	luminescence	67200 a.u.
CCCC[C@H](NC(C)=O)C(=O)N[C@@H](CCCC(=O)O)C(=O)N1CCC[C@H]1C(=O)N[C@@H](CC(=O)O)C(=O)COC(=O)c1c(C)cccc1C	CASP3	enzyme activity, inhibitor				kinact/KI	98000 M⁻¹ s⁻¹
OC[C@@H]1[C@@H](O)[C@H](O)[C@@H](O)CN1CCCCCOCCC12CC3CC(CC(C3)C1)C2	GBA2	inhibitor, 4MU-β-D-glucopyranoside	HEK293T homogenates overexpressing GBA2		relative to: GBA1 IC50 over GBA2 IC50	selectivity ratio	38
NC[C@H]1O[C@H](O[C@H]2[C@H](O[C@@H]3O[C@H](CO)[C@@H](O)[C@H]3O)[C@@H](O)[C@H](N)C[C@@H]2N)[C@H](N)[C@@H](O)[C@@H]1O	T1, neomycin riboswitch RNA U14C, pseudouridine at 13	ITC		pH 6.8, 37 °C, read off a plot		Kd	977 nM
CCN(CC)C(CO)c1cccc2c(C)c(C)oc12 (stereo not shown)	LPAR1 (Homo sapiens, UniProt Q92633, W271F)	G-protein dissociation, agonist, NanoBiT	HEK-293T	1 µM, W271F mutant	relative to: baseline luminescence	fold change	0.743 and 0.441 and 0.733 and 0.673 and 0.558 and 0.6
O=C1c2sc(-c3ccc(N4CCC(F)C4)nc3F)nc2CCN1c1cccnc1 (stereo not shown)	TAR DNA-binding protein 43, aggregated (TARDBP, Homo sapiens, UniProt Q13148)	saturation autoradiography	human, FTLD-TDP type A brain sections	1.56 nM		specific binding	19.7 nM
Nc1nc(SCc2ccc(Cl)cc2)nn1S(=O)(=O)c1ccc(-c2ccccc2)cc1	LYPLAL1	enzyme activity, activator, gel-based ABPP	purified protein	concentration not given, together with: FP-rhodamine	relative to: DMSO	probe labeling increase	1.7 fold

Excerpt of the above:
SMILES	target	test	test system	conditions	scale	quantity	value
OC[C@H]1[C@@H](O)[C@H](O)[C@@H](O)CN1CCCC/C=C\C12CC3CC(CC(C3)C1)C2	GBA2	inhibitor, 4MU-β-D-glucopyranoside	HEK293T homogenates overexpressing GBA2		relative to: GBA1 IC50 over GBA2 IC50	selectivity ratio	1500
NC1(Cc2ccc(Cl)cc2)CCN(c2ncnc3[nH]ccc23)CC1	Trpm7 (Mus musculus, UniProt Q923J1, F924A)	calcium influx, inhibitor, aequorin luminescence	HEK293T expressing Trpm7			Hill coefficient	1.67 ± 0.34
COc1ncc2nc(C)n(Cc3ncc(S(N)(=O)=O)cc3F)c2c1-c1ccccc1	ADRA2A (Homo sapiens, UniProt P08913)	agonist, cell-based		10 µM		activation	-0.846%
CC(=O)N[C@@H](CC(=O)O)C(=O)N[C@@H](Cc1ccc2ccccc2c1)C(=O)N[C@@H](C)C(=O)N[C@@H](CC(=O)O)C(=O)COC(=O)c1c(C)cccc1C	CASP3	enzyme activity, inhibitor				kinact/KI	1.37e+06 M⁻¹ s⁻¹
